# Experimental data of several laboratories.
# Parts stem from different laboratories: compare values within a part only.
# UniProt Q9H4A3, sequence (whole entry, looked up): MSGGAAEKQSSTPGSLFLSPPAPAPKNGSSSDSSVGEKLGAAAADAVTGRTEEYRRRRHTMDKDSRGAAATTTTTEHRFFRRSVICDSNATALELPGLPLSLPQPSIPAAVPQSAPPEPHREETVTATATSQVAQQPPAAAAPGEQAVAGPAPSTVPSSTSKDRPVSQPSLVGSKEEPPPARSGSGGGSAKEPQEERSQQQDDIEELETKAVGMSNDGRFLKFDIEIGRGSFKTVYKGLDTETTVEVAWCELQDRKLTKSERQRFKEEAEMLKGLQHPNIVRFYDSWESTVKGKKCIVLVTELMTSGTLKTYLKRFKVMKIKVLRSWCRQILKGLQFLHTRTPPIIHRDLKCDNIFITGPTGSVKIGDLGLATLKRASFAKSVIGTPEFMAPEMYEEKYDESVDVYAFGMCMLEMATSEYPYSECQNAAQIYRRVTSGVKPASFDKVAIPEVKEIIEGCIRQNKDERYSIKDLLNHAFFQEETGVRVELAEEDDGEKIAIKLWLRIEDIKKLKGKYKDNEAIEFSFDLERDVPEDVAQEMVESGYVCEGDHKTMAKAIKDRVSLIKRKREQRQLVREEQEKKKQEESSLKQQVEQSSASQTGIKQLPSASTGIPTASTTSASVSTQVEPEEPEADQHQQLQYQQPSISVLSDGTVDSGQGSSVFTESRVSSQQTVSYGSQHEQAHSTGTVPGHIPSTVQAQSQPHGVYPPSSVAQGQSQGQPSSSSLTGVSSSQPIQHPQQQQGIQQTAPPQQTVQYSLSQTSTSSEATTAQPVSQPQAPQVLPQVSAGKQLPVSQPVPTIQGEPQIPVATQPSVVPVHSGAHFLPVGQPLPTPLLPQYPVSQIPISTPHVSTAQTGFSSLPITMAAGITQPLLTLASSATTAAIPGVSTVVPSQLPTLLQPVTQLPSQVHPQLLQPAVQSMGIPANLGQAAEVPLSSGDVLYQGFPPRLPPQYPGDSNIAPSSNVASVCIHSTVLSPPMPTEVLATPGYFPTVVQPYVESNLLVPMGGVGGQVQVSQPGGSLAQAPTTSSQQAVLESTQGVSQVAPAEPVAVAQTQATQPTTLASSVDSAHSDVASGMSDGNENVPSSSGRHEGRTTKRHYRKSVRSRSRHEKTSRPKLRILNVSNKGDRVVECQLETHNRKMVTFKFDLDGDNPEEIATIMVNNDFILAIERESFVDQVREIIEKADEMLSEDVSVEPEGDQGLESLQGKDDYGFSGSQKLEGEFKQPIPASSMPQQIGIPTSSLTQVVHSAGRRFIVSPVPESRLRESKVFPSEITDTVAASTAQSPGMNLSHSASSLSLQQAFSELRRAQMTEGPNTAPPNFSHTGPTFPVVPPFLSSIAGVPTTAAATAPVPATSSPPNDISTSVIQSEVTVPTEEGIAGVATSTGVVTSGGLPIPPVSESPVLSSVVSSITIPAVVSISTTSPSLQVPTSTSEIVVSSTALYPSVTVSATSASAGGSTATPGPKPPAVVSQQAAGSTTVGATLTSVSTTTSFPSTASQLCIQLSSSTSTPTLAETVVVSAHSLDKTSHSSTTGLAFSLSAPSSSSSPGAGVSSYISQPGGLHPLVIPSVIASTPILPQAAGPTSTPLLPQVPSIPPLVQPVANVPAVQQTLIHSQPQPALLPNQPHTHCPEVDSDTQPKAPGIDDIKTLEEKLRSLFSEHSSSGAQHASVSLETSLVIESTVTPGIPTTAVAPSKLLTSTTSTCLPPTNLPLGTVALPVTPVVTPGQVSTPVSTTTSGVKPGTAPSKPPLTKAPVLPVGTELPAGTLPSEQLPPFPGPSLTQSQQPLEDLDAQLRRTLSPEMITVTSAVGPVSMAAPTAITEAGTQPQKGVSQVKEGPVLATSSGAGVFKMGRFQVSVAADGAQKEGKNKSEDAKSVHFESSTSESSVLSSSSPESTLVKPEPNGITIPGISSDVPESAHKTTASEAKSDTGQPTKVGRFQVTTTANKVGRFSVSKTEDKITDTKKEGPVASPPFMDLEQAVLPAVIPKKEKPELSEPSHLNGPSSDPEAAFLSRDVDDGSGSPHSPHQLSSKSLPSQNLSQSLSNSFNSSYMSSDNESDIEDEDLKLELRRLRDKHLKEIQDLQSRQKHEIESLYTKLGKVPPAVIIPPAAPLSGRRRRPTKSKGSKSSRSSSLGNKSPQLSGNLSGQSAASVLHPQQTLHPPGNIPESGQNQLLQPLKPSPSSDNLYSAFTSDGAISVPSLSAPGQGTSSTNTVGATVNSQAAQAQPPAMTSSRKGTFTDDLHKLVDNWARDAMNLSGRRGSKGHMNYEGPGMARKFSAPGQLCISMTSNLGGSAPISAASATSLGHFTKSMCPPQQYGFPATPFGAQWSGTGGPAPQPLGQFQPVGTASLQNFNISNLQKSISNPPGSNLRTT
# UniProt Q9UK32, sequence (whole entry, looked up): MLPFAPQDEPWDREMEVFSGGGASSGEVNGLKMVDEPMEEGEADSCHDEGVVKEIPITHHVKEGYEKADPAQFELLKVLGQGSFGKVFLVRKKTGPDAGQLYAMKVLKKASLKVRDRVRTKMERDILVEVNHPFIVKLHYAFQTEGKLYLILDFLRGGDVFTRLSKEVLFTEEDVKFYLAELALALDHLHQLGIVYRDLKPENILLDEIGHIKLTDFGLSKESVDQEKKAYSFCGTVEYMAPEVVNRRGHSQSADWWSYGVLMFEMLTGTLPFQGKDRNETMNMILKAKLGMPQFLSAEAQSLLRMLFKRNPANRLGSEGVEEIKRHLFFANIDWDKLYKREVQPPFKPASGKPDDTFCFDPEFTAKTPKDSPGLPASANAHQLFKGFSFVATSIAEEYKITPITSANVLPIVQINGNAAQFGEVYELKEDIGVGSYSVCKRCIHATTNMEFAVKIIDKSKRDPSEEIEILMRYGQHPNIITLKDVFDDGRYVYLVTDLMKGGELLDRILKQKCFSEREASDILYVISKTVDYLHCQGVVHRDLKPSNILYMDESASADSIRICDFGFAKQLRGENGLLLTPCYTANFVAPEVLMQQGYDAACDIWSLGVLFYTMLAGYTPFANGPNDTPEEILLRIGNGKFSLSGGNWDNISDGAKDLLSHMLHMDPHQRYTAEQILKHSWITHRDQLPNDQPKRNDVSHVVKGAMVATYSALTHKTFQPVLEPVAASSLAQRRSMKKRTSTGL
# UniProt P37023, sequence (whole entry, looked up): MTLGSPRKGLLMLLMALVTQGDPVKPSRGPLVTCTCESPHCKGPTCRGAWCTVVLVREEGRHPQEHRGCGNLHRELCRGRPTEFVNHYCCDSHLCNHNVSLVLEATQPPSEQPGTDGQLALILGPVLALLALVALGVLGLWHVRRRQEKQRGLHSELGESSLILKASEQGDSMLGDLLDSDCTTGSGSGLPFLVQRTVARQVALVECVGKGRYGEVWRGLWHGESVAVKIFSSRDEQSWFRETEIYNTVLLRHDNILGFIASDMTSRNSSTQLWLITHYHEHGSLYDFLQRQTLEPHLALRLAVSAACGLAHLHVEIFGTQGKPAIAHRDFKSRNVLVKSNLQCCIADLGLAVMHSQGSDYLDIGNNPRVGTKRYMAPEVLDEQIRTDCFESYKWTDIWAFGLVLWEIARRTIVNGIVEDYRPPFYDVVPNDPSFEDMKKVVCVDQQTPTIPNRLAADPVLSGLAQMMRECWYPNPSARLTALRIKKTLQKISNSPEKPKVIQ
# UniProt P54764, sequence (whole entry, looked up): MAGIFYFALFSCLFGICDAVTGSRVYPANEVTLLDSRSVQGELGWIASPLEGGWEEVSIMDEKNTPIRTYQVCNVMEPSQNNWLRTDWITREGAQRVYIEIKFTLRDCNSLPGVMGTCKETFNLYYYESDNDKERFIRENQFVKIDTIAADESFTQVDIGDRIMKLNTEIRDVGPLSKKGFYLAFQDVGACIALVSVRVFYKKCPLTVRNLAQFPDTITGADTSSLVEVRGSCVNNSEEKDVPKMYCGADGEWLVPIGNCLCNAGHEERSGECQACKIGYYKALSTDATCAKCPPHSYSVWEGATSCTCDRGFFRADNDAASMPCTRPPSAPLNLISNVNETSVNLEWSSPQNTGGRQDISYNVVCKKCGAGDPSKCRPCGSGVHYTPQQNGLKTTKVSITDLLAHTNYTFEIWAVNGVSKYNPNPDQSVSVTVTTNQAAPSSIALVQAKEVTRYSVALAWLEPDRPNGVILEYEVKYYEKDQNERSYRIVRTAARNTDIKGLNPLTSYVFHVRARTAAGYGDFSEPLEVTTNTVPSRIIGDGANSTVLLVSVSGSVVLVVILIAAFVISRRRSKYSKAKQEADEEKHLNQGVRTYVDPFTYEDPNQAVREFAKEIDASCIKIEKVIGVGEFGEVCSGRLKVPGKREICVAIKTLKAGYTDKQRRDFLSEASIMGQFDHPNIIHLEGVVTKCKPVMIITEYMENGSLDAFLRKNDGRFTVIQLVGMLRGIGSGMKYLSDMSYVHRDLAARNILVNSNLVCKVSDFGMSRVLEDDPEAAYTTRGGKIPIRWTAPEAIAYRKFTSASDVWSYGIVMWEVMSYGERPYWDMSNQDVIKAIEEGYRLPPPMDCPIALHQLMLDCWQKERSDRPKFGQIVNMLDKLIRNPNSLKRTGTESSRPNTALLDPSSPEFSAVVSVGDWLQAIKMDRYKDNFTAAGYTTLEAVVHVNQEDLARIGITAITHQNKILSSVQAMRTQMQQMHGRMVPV

# Set 1
# Structure (SMILES): CC(C)n1cnc(-c2ccc(F)cc2)c1-c1ncc(C(=O)Nc2ccc(N3CCN(C)CC3)cc2)[nH]1
# Technique: Phase 2a trial
# Host: idiopathic pulmonary fibrosis patients
test,setting,patients with adverse events
refers to: reticulocyte count increased,"30 mg once daily, grade 3 maximum intensity",0%
refers to: eye disorders (SOC),"60 mg once daily, grade 4 maximum intensity",0%
refers to: reticulocyte count increased,"30 mg once daily, grade 4 maximum intensity",0%
refers to: weight increased,"30 mg once daily, grade 5 maximum intensity",0%
refers to: blood bilirubin increased,"60 mg once daily, grade 4 maximum intensity",0%

# Set 2
# Target: Serine/threonine-protein kinase haspin (HASPIN, Homo sapiens, UniProt Q8TF76)
# Read-out: enzyme activity
# Mode: inhibitor
# Concentration: 0.5 µM
# Reference: control
# Residues (Q8TF76 1-798): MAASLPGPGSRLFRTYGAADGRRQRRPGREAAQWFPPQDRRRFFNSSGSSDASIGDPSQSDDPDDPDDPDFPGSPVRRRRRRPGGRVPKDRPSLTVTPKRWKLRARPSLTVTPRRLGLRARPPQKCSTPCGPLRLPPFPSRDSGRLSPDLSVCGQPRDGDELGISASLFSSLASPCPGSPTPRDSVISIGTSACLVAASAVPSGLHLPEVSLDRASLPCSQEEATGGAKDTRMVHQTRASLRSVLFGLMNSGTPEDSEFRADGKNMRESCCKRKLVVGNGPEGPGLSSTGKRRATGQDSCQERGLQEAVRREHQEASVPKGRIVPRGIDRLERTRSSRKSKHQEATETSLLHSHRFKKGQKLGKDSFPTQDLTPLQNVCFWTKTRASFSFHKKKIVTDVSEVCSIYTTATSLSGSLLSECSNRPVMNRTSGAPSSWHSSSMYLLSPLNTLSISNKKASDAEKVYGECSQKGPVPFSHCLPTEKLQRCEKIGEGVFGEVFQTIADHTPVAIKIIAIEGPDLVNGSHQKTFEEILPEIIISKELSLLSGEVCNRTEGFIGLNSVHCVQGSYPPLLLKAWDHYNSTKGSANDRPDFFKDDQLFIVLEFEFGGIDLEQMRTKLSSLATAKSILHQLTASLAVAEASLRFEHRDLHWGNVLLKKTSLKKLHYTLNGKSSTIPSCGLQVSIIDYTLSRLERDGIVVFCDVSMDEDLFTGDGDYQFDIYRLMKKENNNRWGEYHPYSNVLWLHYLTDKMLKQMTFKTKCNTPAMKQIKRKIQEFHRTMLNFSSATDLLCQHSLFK
SMILES,remaining activity
NCCNc1ncc(C(N)=O)c(Nc2cccc(C(F)(F)F)c2)n1,57.8%
O=C(CCCc1ccc(-c2ccccc2F)cc1)Nc1ccc(O)cc1,94.7%
CCOC(=O)c1c(C)[nH]c(/C=C2\C(=O)Nc3ccccc32)c1C,92.9%
OCC(O)CCON=C1C(c2c(O)[nH]c3ccccc23)=Nc2ccccc21 (stereo not shown),32.8%
COc1ccc(OC)c2c(=S)c3ccccc3[nH]c12,89.2%
Nc1ccc2ncnc(NCCc3ccc(Oc4ccccc4)cc3)c2c1,96.9%
Cn1sc(=O)n(Cc2ccccc2)c1=O,99%
O=S(=O)(c1cccc2cnccc12)N1CCCNCC1,86.6%
Nc1ncnc2n[nH]c(Nc3ccc(F)cc3)c12,87.7%
COc1cc2ncnc(Nc3ccc(Oc4ccccc4)cc3)c2cc1OC,92%
CN(C)c1ccc(C=C2C(=O)Nc3ccccc32)cc1,88.5%
Cc1ccc(Nc2nccc(N(C)c3ccc4c(C)n(C)nc4c3)n2)cc1S(N)(=O)=O,90.4%
Cn1c2ccccc2c2c3c(c4c5ccccc5n(CCC#N)c4c21)CNC3=O,27.2%
Cc1cccc(-c2[nH]c(C(C)(C)C)nc2-c2ccc3c(c2)OCO3)n1,78.7%

# Set 3
# SMILES: O=C(NC[C@@H]1[C@H]2CN(C(=O)OCc3cc(C(F)(F)F)cc(C(F)(F)F)c3)C[C@@H]12)c1ccc2[nH]nnc2c1
# Read-out: cell-free assay
# Technique: competition with immobilised ligand
# Concentration: 1 µM
target,remaining binding [%]
"Ribosomal protein S6 kinase alpha-6, N-terminal kinase domain (RPS6KA6, Homo sapiens, UniProt Q9UK32)",67
"WNK1 (Homo sapiens, UniProt Q9H4A3)",90
"ACVRL1 (Homo sapiens, UniProt P37023)",100
"EPHA4 (Homo sapiens, UniProt P54764)",82
"Tyrosine-protein kinase ABL1, phosphorylated (ABL1, Homo sapiens, UniProt P00519, H396P)",91

# Set 4
# Technique: exponential regression of PRP log k'
# pH: 7.0
SMILES,"logD (1,9-decadiene/water)"
Cc1ncsc1-c1ccc(CNC(=O)[C@@H]2C[C@@H](O)CN2C(=O)[C@@H](NC(=O)CCCCCOC(=O)CC23C[C@H]4C[C@@H](C2)C[C@@H](C3)C4)C(C)(C)C)cc1,1.99
CCCC(=O)OCCCCCC(=O)N[C@H](C(=O)N1C[C@H](O)C[C@H]1C(=O)NCc1ccc(-c2scnc2C)cc1)C(C)(C)C,-1.35
COCC(=O)NCCCCCC(=O)N[C@H](C(=O)N1C[C@H](O)C[C@H]1C(=O)NCc1ccc(-c2scnc2C)cc1)C(C)(C)C,-4.4
CCCC(=O)NCCCCCC(=O)N[C@H](C(=O)N1C[C@H](O)C[C@H]1C(=O)NCc1ccc(-c2scnc2C)cc1)C(C)(C)C,-4.29

# Some of these lines once more (set 2):
SMILES,remaining activity
Nc1ccc2ncnc(NCCc3ccc(Oc4ccccc4)cc3)c2c1,96.9%
Cn1sc(=O)n(Cc2ccccc2)c1=O,99%
O=S(=O)(c1cccc2cnccc12)N1CCCNCC1,86.6%
Nc1ncnc2n[nH]c(Nc3ccc(F)cc3)c12,87.7%
